Measurements collected from several papers.
Every numbered part comes from another study and shows a few of its results, in no order. Values joined by “and” are separate records of one study, mostly repeats; a detail may differ.

Series 1 — read-out: enzyme activity; action: inhibitor; tested at: 77 µM; reference: untreated; endpoint: remaining activity
Target: DNA polymerase theta, ATPase domain (POLQ, Homo sapiens, UniProt O75417)
Sequence of UniProt O75417 (whole entry, unmodified, looked up): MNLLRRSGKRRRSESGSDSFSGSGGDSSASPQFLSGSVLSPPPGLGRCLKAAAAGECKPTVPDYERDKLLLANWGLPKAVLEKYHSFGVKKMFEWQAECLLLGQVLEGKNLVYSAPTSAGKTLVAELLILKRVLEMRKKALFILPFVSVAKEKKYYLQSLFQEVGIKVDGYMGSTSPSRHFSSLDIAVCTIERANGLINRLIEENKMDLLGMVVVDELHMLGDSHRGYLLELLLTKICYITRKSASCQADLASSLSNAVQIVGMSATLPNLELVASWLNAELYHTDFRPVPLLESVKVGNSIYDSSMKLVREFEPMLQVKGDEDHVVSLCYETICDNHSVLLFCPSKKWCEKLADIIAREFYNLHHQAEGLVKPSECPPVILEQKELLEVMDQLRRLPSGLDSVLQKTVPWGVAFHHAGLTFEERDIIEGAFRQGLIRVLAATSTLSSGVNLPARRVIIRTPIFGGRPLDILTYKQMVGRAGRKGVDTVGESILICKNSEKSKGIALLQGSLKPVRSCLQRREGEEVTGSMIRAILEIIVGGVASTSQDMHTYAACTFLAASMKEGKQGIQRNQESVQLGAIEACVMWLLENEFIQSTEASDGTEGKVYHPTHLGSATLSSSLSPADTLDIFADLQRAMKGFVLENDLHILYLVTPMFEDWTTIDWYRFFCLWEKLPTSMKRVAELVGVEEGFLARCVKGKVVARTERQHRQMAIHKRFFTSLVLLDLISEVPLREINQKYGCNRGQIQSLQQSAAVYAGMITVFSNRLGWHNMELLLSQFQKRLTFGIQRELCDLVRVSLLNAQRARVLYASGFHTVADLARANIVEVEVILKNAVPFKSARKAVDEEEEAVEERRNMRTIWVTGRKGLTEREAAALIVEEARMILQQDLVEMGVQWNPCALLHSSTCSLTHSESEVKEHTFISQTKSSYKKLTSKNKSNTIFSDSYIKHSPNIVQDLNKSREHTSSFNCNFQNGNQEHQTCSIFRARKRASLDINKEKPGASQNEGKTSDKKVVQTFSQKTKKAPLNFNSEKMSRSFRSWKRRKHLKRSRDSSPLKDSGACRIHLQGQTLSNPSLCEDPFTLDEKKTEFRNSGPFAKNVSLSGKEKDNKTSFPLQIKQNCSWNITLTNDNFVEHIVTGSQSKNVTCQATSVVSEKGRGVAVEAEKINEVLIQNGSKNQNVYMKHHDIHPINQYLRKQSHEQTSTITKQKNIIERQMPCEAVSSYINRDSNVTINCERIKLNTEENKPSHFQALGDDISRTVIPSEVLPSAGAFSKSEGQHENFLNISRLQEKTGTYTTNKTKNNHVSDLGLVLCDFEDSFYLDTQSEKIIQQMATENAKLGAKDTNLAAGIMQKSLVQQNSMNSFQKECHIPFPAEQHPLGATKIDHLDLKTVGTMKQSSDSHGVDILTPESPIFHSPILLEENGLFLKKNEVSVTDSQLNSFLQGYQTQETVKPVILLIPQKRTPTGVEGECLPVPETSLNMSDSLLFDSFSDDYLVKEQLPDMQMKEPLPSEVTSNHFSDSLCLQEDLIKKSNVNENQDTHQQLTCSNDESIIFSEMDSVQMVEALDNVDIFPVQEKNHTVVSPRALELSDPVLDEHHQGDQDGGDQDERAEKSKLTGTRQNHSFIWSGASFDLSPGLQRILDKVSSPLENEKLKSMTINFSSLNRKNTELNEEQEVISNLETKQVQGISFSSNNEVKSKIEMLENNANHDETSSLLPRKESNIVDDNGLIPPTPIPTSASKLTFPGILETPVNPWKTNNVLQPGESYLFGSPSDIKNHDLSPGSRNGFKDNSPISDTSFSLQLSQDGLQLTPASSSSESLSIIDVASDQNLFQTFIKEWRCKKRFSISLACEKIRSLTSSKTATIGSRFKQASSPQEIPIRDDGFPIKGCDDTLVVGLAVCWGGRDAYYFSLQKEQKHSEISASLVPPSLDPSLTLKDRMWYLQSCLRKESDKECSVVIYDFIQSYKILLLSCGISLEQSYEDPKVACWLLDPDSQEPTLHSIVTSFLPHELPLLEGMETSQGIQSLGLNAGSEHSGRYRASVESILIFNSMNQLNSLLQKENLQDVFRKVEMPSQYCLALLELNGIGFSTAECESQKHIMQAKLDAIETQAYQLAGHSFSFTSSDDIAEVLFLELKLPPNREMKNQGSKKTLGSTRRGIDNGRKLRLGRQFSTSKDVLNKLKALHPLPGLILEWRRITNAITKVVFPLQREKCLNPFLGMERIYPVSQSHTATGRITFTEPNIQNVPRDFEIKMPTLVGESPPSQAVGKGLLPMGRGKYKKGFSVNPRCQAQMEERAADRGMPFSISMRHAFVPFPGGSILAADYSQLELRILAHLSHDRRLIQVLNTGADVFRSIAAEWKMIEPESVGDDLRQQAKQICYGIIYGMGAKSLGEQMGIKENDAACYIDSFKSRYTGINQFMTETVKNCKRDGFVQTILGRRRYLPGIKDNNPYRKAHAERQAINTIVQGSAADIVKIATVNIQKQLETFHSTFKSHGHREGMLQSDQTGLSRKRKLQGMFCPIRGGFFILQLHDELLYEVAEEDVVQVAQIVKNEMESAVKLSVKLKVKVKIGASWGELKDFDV
SMILES = N/C(=N\N=C\c1ccc(-c2cccc([N+](=O)[O-])c2)o1)N[N+](=O)[O-]; result = 106%
SMILES = C[C@](O)(COc1ccc(C#N)cc1)C(=O)Nc1ccc(C#N)c(C(F)(F)F)c1; result = 104%
SMILES = Cc1cc([C@@H]2CCCN2C)on1; result = 83.3%
SMILES = N=C(NCCC[C@H](N)C(=O)O)N[N+](=O)[O-]; result = 108%

Series 2 — read-out: enzyme activity; action: inhibitor; tested at: 10 µM; endpoint: inhibition
Target: Calcium/calmodulin-dependent protein kinase type II subunit alpha (CAMK2A, Homo sapiens, UniProt Q9UQM7)
Sequence of UniProt Q9UQM7 (whole entry, looked up): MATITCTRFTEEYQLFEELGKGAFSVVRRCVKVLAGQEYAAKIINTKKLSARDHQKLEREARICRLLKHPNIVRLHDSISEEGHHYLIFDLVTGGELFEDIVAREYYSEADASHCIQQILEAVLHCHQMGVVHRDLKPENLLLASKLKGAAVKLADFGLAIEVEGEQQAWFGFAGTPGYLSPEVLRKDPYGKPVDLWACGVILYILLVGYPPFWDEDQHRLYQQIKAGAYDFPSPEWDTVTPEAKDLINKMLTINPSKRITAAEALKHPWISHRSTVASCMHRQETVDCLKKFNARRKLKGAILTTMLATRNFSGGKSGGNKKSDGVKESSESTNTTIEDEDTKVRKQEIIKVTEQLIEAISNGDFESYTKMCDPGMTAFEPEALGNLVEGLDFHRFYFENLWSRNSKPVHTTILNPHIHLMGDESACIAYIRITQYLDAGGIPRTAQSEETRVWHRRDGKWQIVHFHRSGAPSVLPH
SMILES = CO[C@H]1C[C@H](O[C@H]2CC[C@]3(C)[C@H]4CC[C@]5(C)[C@@H](C6=CC(=O)OC6)CC[C@]5(O)[C@@H]4CC[C@]3(O)C2)O[C@H](C)[C@H]1O; result = 13%
SMILES = COc1c(O)cc2c3c1-c1ccccc1C[C@H]3N(C)CC2; result = -39%
SMILES = C/C=C(/C)C(=O)O[C@H]1[C@@H]2[C@H](C)C(=O)O[C@@H]2C[C@@H](C)[C@@H]2C=CC(=O)[C@]21C; result = -23%
SMILES = C#C[C@]1(OC(=O)CCCCCC)CC[C@H]2[C@@H]3CCC4=CC(=O)CC[C@@H]4[C@H]3CC[C@@]21C; result = -2%
SMILES = CCN1C[C@]2(COC)CC[C@H](OC)[C@]34C1[C@H](C[C@H]23)[C@@]1(O)C[C@H](OC)[C@H]2C[C@@H]4[C@@H]1[C@H]2O; result = -17%

Series 3 — read-out: cell-free assay; technique: competition with immobilised ligand; tested at: 1 µM; endpoint: remaining binding
Target: Calcium-dependent protein kinase 1 (CDPK1, Plasmodium falciparum, UniProt P62344)
Sequence of UniProt P62344 (whole entry, looked up): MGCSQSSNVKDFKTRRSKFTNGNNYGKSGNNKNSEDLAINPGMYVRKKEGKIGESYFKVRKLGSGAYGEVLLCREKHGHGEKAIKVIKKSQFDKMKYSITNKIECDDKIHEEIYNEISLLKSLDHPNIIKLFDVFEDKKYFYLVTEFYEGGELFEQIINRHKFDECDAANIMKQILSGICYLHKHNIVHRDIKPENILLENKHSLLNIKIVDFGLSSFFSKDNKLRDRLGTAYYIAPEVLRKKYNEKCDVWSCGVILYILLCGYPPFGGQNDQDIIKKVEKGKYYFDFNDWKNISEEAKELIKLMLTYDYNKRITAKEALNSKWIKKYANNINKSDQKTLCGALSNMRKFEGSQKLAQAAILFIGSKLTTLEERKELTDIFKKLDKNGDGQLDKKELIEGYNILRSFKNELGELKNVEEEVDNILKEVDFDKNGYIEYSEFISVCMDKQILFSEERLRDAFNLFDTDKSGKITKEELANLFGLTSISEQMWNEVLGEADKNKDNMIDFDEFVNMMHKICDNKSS
Compound = Cc1cc(-n2nc(Cc3cc(F)cc(C(F)(F)F)c3)nc2C)ccc1C(N)=O; result = 100%
Compound = O=C(O)[C@H]1[C@H](Cn2nnc3ccccc3c2=O)CC[C@@H]1C(=O)c1ccc(OCCC2CCOCC2)cc1; result = 100%
Compound = O=C(N[C@H]1CCCCC/C=C\C2C[C@@]2(C(=O)O)NC(=O)[C@@H]2C[C@@H](Oc3ccncc3)CN2C1=O)OC1CCCC1 (some centres unmarked); result = 73%

Series 4 — technique: CCK-8; endpoint: survival
SMILES: CC(C)S(=O)(=O)c1cc2c(Nc3ccc4sc(C5CCCC5)nc4c3)ccnc2cc1OCCO
cell line = L929 RIPK3-/- reexpressing RIPK3 K51A; setting = 12.5 µM, together with: zVAD; result = 66.1% and 66% and 68.9% and 71.7%
cell line = L929 RIPK3-/- reexpressing RIPK3 K51A/R69H; setting = 1.563 µM; result = 86.3% and 101% and 89.9% and 96.9% and 98%
cell line = L929 RIPK3-/- reexpressing RIPK3 K51A; setting = 1.563 µM, together with: zVAD; result = 92.6% and 87.4% and 93% and 88.8% and 90.2%
cell line = L929 RIPK3-/- reexpressing RIPK3 K51A; setting = 1.563 µM; result = 93.1% and 101% and 91.7%
cell line = L929 RIPK3-/- reexpressing RIPK3 K51A; setting = 3.125 µM, together with: zVAD; result = 85% and 82.4% and 90% and 78.9%

For quick reference, copied from above (series 2):
SMILES = C#C[C@]1(OC(=O)CCCCCC)CC[C@H]2[C@@H]3CCC4=CC(=O)CC[C@@H]4[C@H]3CC[C@@]21C; result = -2%
SMILES = CCN1C[C@]2(COC)CC[C@H](OC)[C@]34C1[C@H](C[C@H]23)[C@@]1(O)C[C@H](OC)[C@H]2C[C@@H]4[C@@H]1[C@H]2O; result = -17%
